{"data": "Values quoted from earlier work, collected from citations in different studies", "note": "± gives the spread as reported."}
{"SMILES": "CCCCCCCCCCCCCC(=O)N[C@@H](CO)C(=O)N[C@H](C(=O)N[C@@H](Cc1ccc(O)cc1)C(=O)N[C@@H](CCCNC(=N)N)C(=O)N[C@@H](CCCNC(=N)N)C(=O)NCC(=O)N[C@@H](C)C(=O)N[C@@H](CCCNC(=N)N)C(=O)N[C@@H](CCCNC(=N)N)C(=O)N[C@@H](Cc1c[nH]c2ccccc12)C(=O)N[C@@H](CCCNC(=N)N)C(=O)N[C@@H](CCCCN)C(=O)N[C@@H](CC(C)C)C(=O)O)[C@@H](C)CC", "target": "PKMζ-RFP fusion", "test system": "transfected cultured cells", "setting": "concentration not given", "endpoint": "inhibition", "result": "no inhibition"}
{"SMILES": "CC(C)[C@H](NC(=O)[C@H](CO)NC(=O)[C@@H](N)CC(=O)O)C(=O)N[C@H]1CSC(=O)[C@H](Cc2ccccc2)NC(=O)[C@H](Cc2ccc(O)cc2)NC(=O)[C@H](CO)NC(=O)[C@H](C)NC1=O", "target": "AgrC-III Staphylococcus epidermidis", "assay": "agr signalling", "setting": "concentration not given", "endpoint": "activity", "result": "inhibited"}
{"SMILES": "N=C(N)Nc1ccc(OC(=O)c2ccc(NC(=N)N)cc2)cc1", "target": "dengue virus NS2B-NS3 protease", "setting": "50 µM, added: substrate 50 µM", "endpoint": "inhibition", "result": "98.1%"}
{"SMILES": "Nc1c(C(=O)O)ncn1C1OC(COP(=O)(O)O)C(O)C1O (stereo not drawn)", "target": "Escherichia coli PurE", "assay": "substrate", "endpoint": "Km", "result": "23 µM"}
{"SMILES": "CCn1c(CC(=O)N2CCN(c3ccccc3)CC2)nc2sc3c(c2c1=O)CCCC3", "target": "Aβ", "endpoint": "IC50", "result": "2.08 µM"}
{"SMILES": "O=C(c1cccc2ccccc12)c1nc2ccccc2n1CCCCCF", "target": "cannabinoid CB2 receptor", "assay": "binding", "scale": "reference: CB1 over CB2", "endpoint": "selectivity ratio", "result": "> 10"}
{"SMILES": "Nc1nc(=O)n(C2CCCS2)cc1C#CCNS(=O)(=O)C1CC1 (stereo not drawn)", "target": "IspE Escherichia coli", "assay": "enzyme activity, inhibitor", "endpoint": "IC50", "result": "4.73 ± 1.19 µM"}
{"SMILES": "N=C(Nc1ccc(OCCCCCOc2ccc(NC(=N)c3ccccc3)cc2)cc1)c1ccccc1", "target": "Kir2.1", "assay": "whole-cell current, manual patch clamp", "setting": "3 µM, at -110 mV", "endpoint": "inhibition", "result": "68%"}
{"SMILES": "CN(C)c1ccc(/C=C/C(=O)c2ccc(OC(=O)N3CCCC3)cc2O)cc1", "target": "amyloid beta 1-42", "assay": "Cu2+-induced aggregation", "setting": "25 µM", "endpoint": "inhibition", "result": "79.7%"}
{"SMILES": "COc1ccc(N2CCN(C(=O)ON3C(=O)C4CN(Cc5ccc(Oc6ccccc6)cc5)CCN4C3=O)CC2)cc1 (stereo not drawn)", "target": "PPT1", "assay": "inhibitor", "setting": "concentration not given", "endpoint": "inhibition", "result": "inhibited"}
{"SMILES": "Cc1ncsc1-c1ccc(CNC(=O)[C@@H]2C[C@@H](O)CN2C(=O)[C@@H](NC(=O)CCCCCCCCCC(=O)NCCN2CCN(Cc3cccc(-c4ccc(N5CCN(C)CC5)c(NC(=O)c5c[nH]c(=O)cc5C(F)(F)F)c4)c3)CC2)C(C)(C)C)cc1", "target": "WDR5", "assay": "protein degradation, degrader", "test system": "MV4-11", "endpoint": "Dmax", "result": "71%"}
{"SMILES": "CC(=O)N[C@H]1[C@@H](OC[C@H](NC(=O)CNC(=O)[C@@H]2CCCN2C(=O)[C@H](C)NC(=O)[C@@H]2CCCN2C(=O)[C@@H](N)CCCNC(=N)N)C(=O)N[C@H](C(=O)N[C@@H](C)C(=O)N2CCC[C@H]2C(=O)N2CCC[C@H]2C(=O)N[C@@H](C)C(=O)N[C@@H](Cc2c[nH]cn2)C(=O)NCC(=O)O)[C@@H](C)O)O[C@H](CO)[C@H](O)[C@@H]1O", "target": "14 A monoclonal antibody", "assay": "SPR", "endpoint": "kon", "result": "117000 M⁻¹ s⁻¹"}
{"note": "Repeated from above:"}
{"SMILES": "CCCCCCCCCCCCCC(=O)N[C@@H](CO)C(=O)N[C@H](C(=O)N[C@@H](Cc1ccc(O)cc1)C(=O)N[C@@H](CCCNC(=N)N)C(=O)N[C@@H](CCCNC(=N)N)C(=O)NCC(=O)N[C@@H](C)C(=O)N[C@@H](CCCNC(=N)N)C(=O)N[C@@H](CCCNC(=N)N)C(=O)N[C@@H](Cc1c[nH]c2ccccc12)C(=O)N[C@@H](CCCNC(=N)N)C(=O)N[C@@H](CCCCN)C(=O)N[C@@H](CC(C)C)C(=O)O)[C@@H](C)CC", "target": "PKMζ-RFP fusion", "test system": "transfected cultured cells", "setting": "concentration not given", "endpoint": "inhibition", "result": "no inhibition"}
